Assay results collected from several papers.
A part holds a random share of what one study measured.

Series 1
Target: Histone acetyltransferase KAT6A, winged helix 1, GST fusion (KAT6A, Homo sapiens, UniProt Q92794, residues 1-85)
Technique: protein binding microarray
Form: double-stranded DNA, one strand shown
Matrix: in vitro
Tested at: not given
Notes: 8-mer, flanks averaged, mean of 2 arrays, mostly near background
Baseline: not given
Reading: higher = stronger binding
Target sequence (chain): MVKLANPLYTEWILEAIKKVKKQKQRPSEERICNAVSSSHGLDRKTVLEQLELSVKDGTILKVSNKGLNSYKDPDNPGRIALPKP
Oligonucleotide	E-score
CACTGTCC	0.0552
AACGTAAA	-0.0417
CGGCAAAG	0.233
CGGTTACG	0.368
TCCTCAAA	-0.202
ACCAAGTA	-0.0801
GAAGTCCC	0.0641
TCGCGCCA	0.234
AGAAGCAA	-0.211
CAACGTTA	0.0492
TTTAGAAA	0.0368
CAGTGGAC	-0.14
AGGCCCCG	0.0886
ACGTAGAC	-0.0539
ATCGGAAC	-0.131
CTCTGCAA	-0.175

Series 2
Target: PABPC1L2, full length, GST fusion (mouse, UniProt A0ABA7IW68)
Technique: RNAcompete
Form: RNA
Matrix: in vitro
Tested at: 20 nM
Notes: 7-mer, probes averaged, single round
Baseline: mean of 7-mers
Reading: higher = stronger binding
Target sequence (chain): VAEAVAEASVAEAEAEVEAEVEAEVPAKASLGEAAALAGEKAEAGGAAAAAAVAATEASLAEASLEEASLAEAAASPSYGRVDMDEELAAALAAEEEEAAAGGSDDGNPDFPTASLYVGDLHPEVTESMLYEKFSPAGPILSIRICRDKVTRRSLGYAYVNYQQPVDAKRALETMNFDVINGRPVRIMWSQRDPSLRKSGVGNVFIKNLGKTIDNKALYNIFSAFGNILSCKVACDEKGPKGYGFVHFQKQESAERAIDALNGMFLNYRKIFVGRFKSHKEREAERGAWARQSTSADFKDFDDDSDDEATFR
Oligonucleotide	7-mer Z-score
GGGCUGG	0.187
GAUCCAA	0.158
CCCUUUG	-0.479
AAAAAUG	19.1
GCUAGAA	0.244
GCGGAGC	0.0152
CAUUACU	-0.141
GGUGGAU	0.187
GAGACAC	0.155
CCCUUCG	-0.387
UCUGGCC	-0.282
CCAUCGC	-0.371
ACACUAA	0.276
CCCUUGU	-0.344
AAAGUGA	1.48
UACCCGU	-0.316
AUUUGUC	-0.423
UCGCAGG	-0.133
CUUCCAU	-0.407
CUUGGGU	-0.137
GGCAAAU	0.318
UAGUGCA	-0.0554
AUUCCCG	-0.306
UUGAACU	-0.0428

Series 3
Target: RNA binding protein fox-1 homolog 2, RRM domain, GST-SBP tag (RBFOX2, Homo sapiens, UniProt O43251-10, residues 100-194)
Technique: RNA Bind-n-Seq
Form: RNA
Matrix: in vitro
Tested at: 365 nM
Notes: natural RNA segment, single round, ends assumed
Baseline: no-protein control
Reading: higher = stronger binding
All sequences stand within: GGGAGUUCUACAGUCCGACGAUC … UGGAAUUCUCGGGUGCCAA
Target sequence (chain): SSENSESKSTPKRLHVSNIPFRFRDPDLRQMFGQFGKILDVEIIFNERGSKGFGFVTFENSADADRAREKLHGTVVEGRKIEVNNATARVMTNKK
Oligonucleotide	RBNS enrichment (R)
CAAAGCAGCGGGGAGUCGGGCUGUGGCAUGUCGUUCACAGAUAAAUGGCACACCUAGAUUCUUCUGGAAACAUUCUGGAACCUAUCUGAUGACCAGUAUUUCCAGAGUAA	0.454
CCCACAGCACAUGACACCGACAGCUGCCCAGCCUGUUCACAUGCUGGGGACCAGCACAGCACCUGAAGCCAUGUGGGACAGUUGGGCUUUGUUCAUUCUAGCCACGGGGA	0.338
GCCUUGCGGUCAGGGACUGAAUCUUGCCCGUUUAUGUAUGCUCCAUGUCUAGCCCAUCAUCCUGCUUGGAGCAAGUAGGCAGGAGCUCAAUAAAUGUUUGUUGCAUGAAG	1.86
CCUGAGUGUUUGCUUUCGGUUUGUUGGUAUGCCUGUAUUGCUGGGCUGUGCUGCUGCUCGAAGCAGAUGGUUUUGACUGUCUUUUUGCUCUUUCCUAUAUAAUGAAUAGA	0.655
CAUGUAAGAGCCAGGUGUUCAGUGGCAUGUGCUUAAAAGUCGCCCCCAACUAAGGUCUGUGUCGCCUUCUUGUAAAUGUUGUAUAUGUUGUAUUUUGUUGGUAAUUAUUU	1.54
UCUGCAGGGCAUAUUAAGAUCAUCCCAGAGGUUCAGGCAGUUCCUGUCAUCUCUGAAAAGACUGGGGGAUAUGAAAUCUUCCCCCUACCCCACUUAAUGCGUUGGAUAUG	0.319
CCCCGGACCAAGGGGAUACUGUAAUCAGGUUAUGUACACCAACCUCUGCAUCAGUUGCUUCUAUAGAGCAUCAGCCCUCAUGUUUCAUUGUCUUAAUGUCGGGGAGCAGC	0.338
GUGGUUGAUUUCAAUACACUCAAGUGCCAUUCAUCCUUUAAGAAAAACAUCUGGAUAUCAAGGUGGAAAUGGCCCAUUUAAUGAUUGAUUAUAUCAUUUUGUGGAUAUAG	0.283
UACAGAAUUGCCUGUUUGUUUCAAUGUCUCCCUCCACUUGGCUCUUAGGGGAAUUAAGGACAGGCCUAGAGUUAAAACACUUGUCUCCUAGUGUCACCUCUGCCAGCAGA	0.267
GUGCUCUUCUAAAUGGCCUGUGAGCCAGGCUGUGGGAACUCUAGCUGCUGUCAGCCCCUCCUGUAGGAGCUGGCCCUGCCCAGGCUCCUGACUUCCCUCAGGAAGUCUUU	0.159
UUAAAAAUAAUUUCUAUUCAAAAUACAUGCAUAAUUGAUUUUACACCUCAUUACUGGUGGAUAAUUUAUGUGAUGUGGAUUGCUGGUGUCCAGCAUGACCCAUAAACAGG	1.59
AUAUAAAGCACAAUUACUAUAUUUCACAGUUUUUGCUAAUAGAAAAUGCUGAUUCUGAUUCUGAGAUCAAUUUGUGGGAAUUUUACAUAAAUCUUUGUUAAUUACUGAGU	0.54

Series 4
Target: Interferon regulatory factor 7, full length, phosphomimetic (IRF7, Homo sapiens, UniProt Q92985, residues 1-503, S471D/S472D/S475D/S476D/S477D/S483D/S484D/S487D)
Technique: protein-binding microarray
Form: double-stranded DNA, one strand shown
Matrix: in vitro
Tested at: 2200 nM top
Notes: 60-bp whole probe
With: salmon DNA 0.4 mg/ml
Baseline: random background probes
Reading: higher = stronger binding
All sequences stand within: GCCTAGCAC … GTCTTGATTCGCTTGACGCTGCTG
Construct (chain): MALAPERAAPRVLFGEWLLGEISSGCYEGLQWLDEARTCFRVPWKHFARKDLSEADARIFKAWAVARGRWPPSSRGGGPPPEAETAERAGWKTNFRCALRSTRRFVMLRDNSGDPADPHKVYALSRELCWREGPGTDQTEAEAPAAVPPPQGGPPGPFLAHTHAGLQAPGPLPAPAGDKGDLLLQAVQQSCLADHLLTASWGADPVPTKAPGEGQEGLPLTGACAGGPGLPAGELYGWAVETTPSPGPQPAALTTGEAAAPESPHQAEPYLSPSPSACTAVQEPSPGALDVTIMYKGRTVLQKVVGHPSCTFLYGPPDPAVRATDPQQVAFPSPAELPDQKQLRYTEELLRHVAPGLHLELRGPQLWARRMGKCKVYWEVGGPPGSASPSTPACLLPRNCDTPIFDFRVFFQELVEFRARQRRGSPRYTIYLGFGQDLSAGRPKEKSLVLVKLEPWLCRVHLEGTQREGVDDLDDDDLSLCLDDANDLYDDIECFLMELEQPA
Oligonucleotide	fitted relative affinity [z-score]
TCTTTTATGGTATTTTTTTGGTGCTAG	1.27
TGACAGCAGGAACATGGGCTGTGCTAG	-0.805
TTGTTTTTCATTATTGTCTCGTGCTAG	2.74
GACGATTTCGCGACTGGAGACGTGCTA	0.994
TTATATTTCAGTCTCGATTAGTGCTAG	1.45
GACGATCTCAGACTGGAGAAGTGCTAG	-0.29
TCAGGTTTCGGGACTGGGTTAGTGCTA	3.68
ATAGGTTTCCTTTTCCTTTAGTGCTAG	7.07
AGCCATCTGCAGCAGGCCCCGTGCTAG	-0.476
TTAGATATCGGGTTGCGATTAGTGCTA	0.65
ATAGGACTGGGACTGGGTTAGTGCTAG	-0.712
TTTTTTTTTTTTCTGATCCAGTGCTAG	2.84
TTTGGTTTCGGGTATCGGTTAGTGCTA	7.65
TCATCTTTATGTACTCTCACTGTGCTA	1.52
TCATTTCTGGTTCCCATACTGTGCTAG	3.7
TTAGGTATCGACTATCGGTCAGTGCTA	0.148
TTAGGGATCGACACTGGGTTAGTGCTA	-0.578
TTAGAACTGGGTTTTCGATTAGTGCTA	2.44
GACGGACTGGGGTATCGGGACGTGCTA	-0.849
TTAGGACTGGGTATAGGTTAGTGCTAG	-0.44
TTAGAACTGAGTCTAGATTAGTGCTAG	-0.756
GACGAACTGAGCCTGGAGACGTGCTAG	-0.351
ATAGAACTGAGTCTCGATTAGTGCTAG	-0.138

Repeated from above (series 2):
Oligonucleotide	7-mer Z-score
CAUUACU	-0.141
UCUGGCC	-0.282
CCCUUCG	-0.387
AUUUGUC	-0.423
AAAGUGA	1.48
CUUCCAU	-0.407
GCGGAGC	0.0152
GAUCCAA	0.158
UUGAACU	-0.0428
